Results pooled from the literature.
A part holds a random share of what one study measured.

Series 1
Target: Ras GTPase-activating protein-binding protein 1, C-terminal RGG region (G3BP1, Homo sapiens, UniProt Q13283)
UniProt Q13283, sequence (whole entry, looked up): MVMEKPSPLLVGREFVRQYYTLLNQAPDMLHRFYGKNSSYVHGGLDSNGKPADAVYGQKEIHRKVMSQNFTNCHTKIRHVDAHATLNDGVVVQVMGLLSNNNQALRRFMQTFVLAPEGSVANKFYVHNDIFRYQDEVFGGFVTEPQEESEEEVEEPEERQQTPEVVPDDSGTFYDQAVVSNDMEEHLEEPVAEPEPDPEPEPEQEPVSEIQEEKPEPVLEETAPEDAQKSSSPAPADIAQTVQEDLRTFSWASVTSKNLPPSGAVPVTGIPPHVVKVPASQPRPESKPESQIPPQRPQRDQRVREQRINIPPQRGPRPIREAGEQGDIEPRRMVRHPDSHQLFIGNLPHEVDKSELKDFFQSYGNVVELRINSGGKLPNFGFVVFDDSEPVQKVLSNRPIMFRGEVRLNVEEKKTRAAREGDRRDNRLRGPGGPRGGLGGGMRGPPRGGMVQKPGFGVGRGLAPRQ
Technique: RNA Bind-n-Seq
Molecule type: RNA
Matrix: in vitro
Tested at: 1 µM
Setting: whole 134-nt RNA, ends assumed
With: 150 mM KCl
Reference: input library
Reading: higher = stronger binding
With `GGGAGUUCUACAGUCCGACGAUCGUCCUGUGCUACACAUCGUAUGUACCGAAUCGGGGUUUUUGGGGUUUUUGGUUUUUGGAAAGUAUUAUGUUACGCCGUUCGGAUCUGCACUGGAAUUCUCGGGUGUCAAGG` the log2 enrichment was -1.03.
For `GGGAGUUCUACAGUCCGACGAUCAGUCCUGUGCUACACAUCGUAUGUACCGAAUCGGGUUUGGGAAAAAAAGGGAAAGGGAAAGUAUUAUGUUACGCCGUUCGGAUCUGCACUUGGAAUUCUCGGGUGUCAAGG`, the log2 enrichment was 0.704.
The log2 enrichment of `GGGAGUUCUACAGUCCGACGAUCCAAGUCCUGUGCUACACAUCGUAUGUACCGAAUCGGGGUUUGGGGUGGGGAGGGGAAAGUAUUAUGUUACGCCGUUCGGAUCUGCACUUCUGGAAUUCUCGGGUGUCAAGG` is reported as 2.64.
`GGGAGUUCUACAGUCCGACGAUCCAAGUCCUGUGCUACACAUCGUAUGUACCGAAUCAAACCCAAAUUUAAACCCAAAAAAGUAUUAUGUUACGCCGUUCGGAUCUGCACUUCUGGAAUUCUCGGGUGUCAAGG` gave a log2 enrichment of -0.84.
`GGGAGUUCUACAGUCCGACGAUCAGUCCUGUGCUACACAUCGUAUGUACCGAAUCGGGUUUUUUUGGGUUUUUGGGUGGGAAAGUAUUAUGUUACGCCGUUCGGAUCUGCACUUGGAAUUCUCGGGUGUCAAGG` has a log2 enrichment of 0.568.
With `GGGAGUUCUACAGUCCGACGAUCUCCUGUGCUACACAUCGUAUGUACCGAAUCGGGUUUUUUGGUUUUUUGGGUUUUUUGGGAAAGUAUUAUGUUACGCCGUUCGGAUCUGCAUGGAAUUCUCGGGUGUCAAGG` the log2 enrichment was -0.812.
With `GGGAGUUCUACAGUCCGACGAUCCCAGGAAGUAAAAACAAAUGGAAAUGCUUCGGAUAGUGGCAGGGGUGGGGGUUGCUAAGGAAAGGGUGGGAUGGGAGUGGGUAAAGAGUUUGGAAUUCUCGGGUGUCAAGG` the log2 enrichment was 1.88.
`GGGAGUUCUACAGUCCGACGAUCGUCCUGUGCUACACAUCGUAUGUACCGAAUCGGGAAAAAGGGUUUUUGGGUUUUUGGGAAAGUAUUAUGUUACGCCGUUCGGAUCUGCACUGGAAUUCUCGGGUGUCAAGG` has a log2 enrichment of -0.442.
The log2 enrichment of `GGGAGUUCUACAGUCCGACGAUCUCCUGUGCUACACAUCGUAUGUACCGAAUCGGGAAAAAAAGGGAAAAAGGGUUUUUGGGAAAGUAUUAUGUUACGCCGUUCGGAUCUGCAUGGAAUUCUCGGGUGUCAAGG` is reported as -0.348.

Series 2
Target: Max dimerization protein 1, bHLH-zipper, MAX partner unstated (MXD1, Homo sapiens, UniProt Q05195, residues 56-136)
Technique: protein-binding microarray
Molecule type: double-stranded DNA, one strand shown
Matrix: in vitro
Tested at: not given
Setting: k-mer, scored over probes, only values ≥0.25
Reading: higher = stronger binding
Target sequence (chain): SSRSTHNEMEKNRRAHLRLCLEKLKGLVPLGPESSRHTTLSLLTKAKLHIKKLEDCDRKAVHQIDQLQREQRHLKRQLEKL
The E-score of `CCCCAACC` is reported as 0.354.
`AATCATGT` gave an E-score of 0.374.
For `CATGTCGC`, the E-score was 0.357.
For `CGTGTGGA`, the E-score was 0.258.
The E-score of `CACCATGA` is reported as 0.288.
`CGTGATCC` gave an E-score of 0.31.
For `CACGCCCC`, the E-score was 0.337.
For `ACCCCATG`, the E-score was 0.401.
With `ACGTGGAC` the E-score was 0.359.

Series 3
Target: RNA binding protein fox-1 homolog 2, RRM domain, GST-SBP tag (RBFOX2, Homo sapiens, UniProt O43251-10, residues 100-194)
Technique: RNA Bind-n-Seq
Molecule type: RNA
Matrix: in vitro
Tested at: 365 nM
Setting: natural RNA segment, single round, ends assumed
Reference: no-protein control
Reading: higher = stronger binding
Residues (chain): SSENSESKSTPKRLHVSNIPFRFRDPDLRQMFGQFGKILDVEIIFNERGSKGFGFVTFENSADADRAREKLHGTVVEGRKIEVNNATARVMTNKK
`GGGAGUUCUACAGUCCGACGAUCGGGAGCACCUUUUAUCCCAAAGUGCUUUAUAAAUUGAGUGGACUGAUAUAUAUCACACCCAGGUAUCACUGUGCUGUCCUUUGCUGUCAGAUUUAGAAAUGUUUUUAAGAUGGAAUUCUCGGGUGCCAA` — result for “RBNS enrichment (R)”: 0.793.
Under “RBNS enrichment (R)”, `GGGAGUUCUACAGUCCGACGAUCUAACCCAUGAACUAGCUGUAACAUAGUUUGUGGAUCCAUGCACUGAUGCUGUGAAGCCUGCCCCUGUGUGUAUCUGUUCUCUCACCUCCCUAGCACUGUAAGCAGCGGUGUGGAAUUCUCGGGUGCCAA` is recorded as 0.844.
For `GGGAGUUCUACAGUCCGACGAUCUUCGGUGUGCACCAGGGUUGACCCCAGAGGAUUGCUGCCCCAUCAGUGCUCCCUCACAUGUCAGUACCUUCAAACUAGGGCCAAGCCCAGCACUGCUUGAGGAAAACAAGUGGAAUUCUCGGGUGCCAA`, “RBNS enrichment (R)” read 0.593.
For `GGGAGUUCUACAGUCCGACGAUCGGACUCGGAGCACUGACCCCUGCGCUUGGAUUGCUAGACUCCUCUUCCUCCUGGACCCCAUCCUCUACCAUCCAAGCCCUGUCCCACUUUGGCCCUAUCCUCUCCAUUAGUGGAAUUCUCGGGUGCCAA`, “RBNS enrichment (R)” read 0.367.
Under “RBNS enrichment (R)”, `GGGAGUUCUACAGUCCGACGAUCACAGAGCCUGAAGCCCACACUCCGGAAAUGUCUCCUUCCAGAGAAAUGUUGGAGCCGAUCCAGGGUUUGAGAGAGCUACAAAGACAUCGGGGGCUGGAGCCAUGCCUUGGUGGAAUUCUCGGGUGCCAA` is recorded as 0.521.
`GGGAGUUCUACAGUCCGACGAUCCCUCCAAACCUGGACUCUGGGACUUAGGCCCCCUUAAAUCUAGACUUCUCUUUAUAGGUUUCAGGUCUCCUAUGGGUGCCUGGGAAGUCCUUGAAAGUGGACUGUUCUCAUGGAAUUCUCGGGUGCCAA`: “RBNS enrichment (R)” 0.664.
`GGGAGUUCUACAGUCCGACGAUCCCACCUGUUUUUCUGUGCUCCAGCUGGGCAGUGGGCUCCCCAUGUAGAGCUGAGCCUCUCCACUUCAGGGUGUGGCAUCAUGGCUCAGAUGUCAUUUUGAGCUAAAACCCUGGAAUUCUCGGGUGCCAA` — result for “RBNS enrichment (R)”: 0.364.
`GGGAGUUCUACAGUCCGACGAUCUACUACUAAUUUGCCUAUUGCCUAUCGCCUCUCUCUCCCAUUCAGACAAGUGUUUGUAGACUCUGAAGCCUAAUGUUACUCAUGACGUUUGCCUCAUUGCUUUGCUUAUUUGGAAUUCUCGGGUGCCAA`: “RBNS enrichment (R)” 1.13.
For `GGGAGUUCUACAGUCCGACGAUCUCAGGAAGUGACAGGCCCAUCAUAUCAAAUAACUUAUUCACUUUUCAUGUGGCAGGAAACUGGAAUAUCGCUUUUAAUAAAAUGGAAAAAUAUGCUUCUACAUAUUUACCUGGAAUUCUCGGGUGCCAA`, “RBNS enrichment (R)” read 1.01.
`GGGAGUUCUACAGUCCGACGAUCAAAACCCAGGGUAUCUUCCCUCAGCAGCCUUCCAGCCGAGGACCAGAAAAGCUAUGAUUCCAUUAGAAGACUUCUGGAGGUCCCCAGAUCUUUGGAGUGUGGGAAUGGAAUGGAAUUCUCGGGUGCCAA`: “RBNS enrichment (R)” 0.322.
For `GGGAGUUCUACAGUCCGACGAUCAGAGCCUGCAUGUGUAUGCCGUCCUCCCCUGGUCCGGUGUUUGUGUUCCCCACCCCUCACAGACUGCCUGAGCUCUUCUGUAAGCUGGGGUAGGGUGAUGGCAGUGCUCCUGGAAUUCUCGGGUGCCAA`, “RBNS enrichment (R)” read 5.81.
Under “RBNS enrichment (R)”, `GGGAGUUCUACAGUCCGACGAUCCUGCCUGGCCUCCAAUUUGUAAUCCUCCUGCCUCAGCCUUGAGUGCUGGAAUUGAGUGUGUGCCACCUUGACCAGCCUUUUGUUUCCUUUUUAAUACUAAACCUUACAGUUGGAAUUCUCGGGUGCCAA` is recorded as 0.514.

Other studies, line by line
For `PhoQ, residues 284 288 289 292 302 303 AGGCYF`, the fold induction was 1.37 (PhoP, residues 12 14 15 18 19 SGWQI (Escherichia coli, UniProt P23836); Sort-seq, refers to: YFP reporter; E. coli; PhoQ-PhoP variant library, with: 10 µM Mg2+; reference: high Mg2+ state, higher = stronger signaling).
